Measurements pooled from the literature.
Parts stem from different laboratories: compare values within a part only.

Study 1
Target: Histone acetyltransferase KAT6A, both winged helices, GST fusion (KAT6A, Homo sapiens, UniProt Q92794, residues 1-181)
Method: protein binding microarray
Molecule type: double-stranded DNA, one strand shown
Sample: in vitro
Concentration: not given
Notes: 8-mer, flanks averaged, mean of 2 arrays, mostly near background
Reference: not given
Direction: higher = stronger binding
Endpoint: E-score
Construct (chain): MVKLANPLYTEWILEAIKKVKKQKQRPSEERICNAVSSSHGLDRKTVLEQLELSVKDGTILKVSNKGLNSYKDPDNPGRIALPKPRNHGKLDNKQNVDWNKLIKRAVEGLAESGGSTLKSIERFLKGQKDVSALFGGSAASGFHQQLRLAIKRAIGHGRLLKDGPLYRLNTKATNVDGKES
GAGCAATC: 0.0555
ACAGCAAC: -0.0388
GGAATGTA: -0.0134
CAGTACGG: 0.244
CCCGTCAC: 0.222
AGTATACG: 0.0917
CCATTCGA: -0.0996
CCGCGTGA: 0.28
CGGATAGA: 0.213
AGGTCAAA: -0.11
TCCGAGGA: -0.0341
GCTGCTAA: -0.0949
AGGGGTAC: -0.117
CGATGCTC: 0.045

Study 2
Target: Sal-like protein 4, full length isoform B (SALL4, Homo sapiens, UniProt Q9UJQ4-2, residues 1-616)
Method: universal PBM
Molecule type: double-stranded DNA, one strand shown
Sample: in vitro
Concentration: not given
Notes: 8-mer, flanks averaged, mean of replicates
Direction: higher = stronger binding
Endpoint: E-score
CATCGAGC: -0.201
CAACCACC: -0.257
GTGAAAAC: -0.0276
ATAATGAC: 0.112
AATCAGCA: 0.164
CAATACAC: 0.239

Study 3
Target: Sox-I, HMG box (Salpingoeca helianthica)
Method: Spec-seq
Molecule type: double-stranded DNA, one strand shown
Sample: in vitro
Concentration: not given
Notes: whole probe, mean of replicates
Reference: not given
Direction: lower = stronger binding
Endpoint: relative binding energy
Shared flanks, not repeated: GAGTCGTCTCGTCAGCAC … TTCCGTAGAGCACTCAGGTC
Target sequence (chain): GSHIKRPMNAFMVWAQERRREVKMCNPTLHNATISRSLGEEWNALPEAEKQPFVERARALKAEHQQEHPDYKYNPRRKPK
CATCT: 0.455 ln ratio
CATAC: 0.203 ln ratio
ATGAG: 0.212 ln ratio
TTGTG: -0.356 ln ratio
TGTTG: -1.68 ln ratio

Study 4
Target: Interferon regulatory factor 5, full length, phosphomimetic (IRF5, Homo sapiens, UniProt Q13568-2, residues 1-514, S451D/S453D/S456D/S462D)
Method: protein-binding microarray
Molecule type: double-stranded DNA, one strand shown
Sample: in vitro
Concentration: 940 nM top
Notes: 60-bp whole probe
With: salmon DNA 0.4 mg/ml
Reference: random background probes
Direction: higher = stronger binding
Endpoint: fitted relative affinity
Shared flanks, not repeated: GCCTAGCAC … GTCTTGATTCGCTTGACGCTGCTG
TTAGGTCTCCGACTGCTTTAGTGCTAG: -0.237 z-score
GACGGTATAGACTATCGGGACGTGCTA: -0.28 z-score
TTAGGTTTCCTTCTCCTATAGTGCTAG: 2.45 z-score
GACGAACTGGGGACTGGAGAGGTGCTA: -0.101 z-score
GACGGTATCAGTATCGGGACGTGCTAG: 4.09 z-score
TTAGGCCTGGGTATCGGTTAGTGCTAG: 3.38 z-score

Other studies, line by line
PhoQ, residues 284 288 289 292 302 303 SLANIV  fold induction (PhoP, residues 12 14 15 18 19 NQFFI (Escherichia coli, UniProt P23836); Sort-seq, item: YFP reporter; E. coli; PhoQ-PhoP variant library, with: 10 µM Mg2+; reference: high Mg2+ state, higher = stronger signaling): 18.2
